Results of several laboratories.
Compare with care: the assays were run in different laboratories. Numbers after ± are the reported error.
Medium: plasma

`CCN1C(=O)CNc2ncc(-c3ccc(-c4nc[nH]n4)nc3C)nc21` gave an AUC(0-24h) of 2060 ng·h/mL (human; oral, 15 mg twice daily, multiple doses).
For `Cc1ccc(NC(=O)c2ccc(CN3CCNCC3)cc2)cc1Nc1nccc(-c2cccnc2)n1`, the AUC(0-24h) was 4100 ng·h/mL (human patients; oral, 400 mg of imatinib, first dose, day 1 of cycle 1).
For `CCN(CC)CCNC(=O)c1c(C)[nH]c(/C=C2\C(=O)Nc3ccc(F)cc32)c1C`, the AUC(0-24h) was 414 ng·h/mL (LC-MS/MS; human, cancer patients on NNRTI; oral, 50 mg/day, cycle 1 day 1).
For `Cc1ncc(CO)c(C(=O)O)c1O`, the AUC(0-24h) was 55.1 ± 14.9 ng·h/mL (human, Japanese males; dose not given, endogenous baseline level).
`FC(F)(F)c1ccc(CNc2ccc(Cc3c[nH]c4ncc(Cl)cc34)cn2)cn1` gave an AUC(0-24h) of 27700 ng·h/mL ([14C]-labelled mass balance; human male; oral, 400 mg).
The AUC(0-24h) of `CC(C)(C(=O)NCC(F)(F)C(F)(F)F)C(=O)N[C@@H]1C(=O)Nc2ccccc2-c2ccccc21` is reported as 2350 ng·h/mL (human patients; oral, 10 mg, day 15, geometric mean, together with: bevacizumab).
`COc1cccc(-c2ccc(NC(=O)C3=C(C(=O)O)CCC3)c(F)c2)c1` has an AUC(0-24h) of 82100 ng·h/mL (human, male; oral, 50 mg once daily, day 0, geometric mean).
With `CS(=O)(=O)n1cc2c(n1)CN([C@H]1CO[C@H](c3cc(F)ccc3F)[C@@H](N)C1)C2` the AUC(0-24h) was 0.092 µM·h (healthy male human; oral, 0.5 mg, fasted, geometric mean).
For `CC[C@H](C)[C@H](NC(=O)[C@H](CCC(N)=O)NC(=O)[C@H](Cc1c[nH]cn1)NC(=O)[C@H](C)NC(=O)[C@H](CC(C)C)NC(=O)[C@H](CCCCN)NC(=O)[C@H](CCC(N)=O)NC(=O)[C@@H](NC(=O)[C@@H](NC(=O)[C@@H]1CSSC[C@H](NC(=O)CNC(=O)[C@H](Cc2ccccc2)NC(=O)[C@H](CO)NC(=O)[C@H](CCCNC(=N)N)NC(=O)[C@H](CC(C)C)NC(=O)CNC(=O)[C@H](CCC(N)=O)NC(=O)[C@H](Cc2ccccc2)NC(=O)[C@H](CC(N)=O)NC(=O)[C@H](CC(N)=O)NC(=O)[C@H](CCSC)NC(=O)[C@H](CO)NC(=O)[C@H](CCC(N)=O)NC(=O)[C@H](CCCNC(=N)N)NC(=O)[C@@H](N)Cc2ccc(O)cc2)C(=O)N[C@@H](CCCNC(=N)N)C(=O)N[C@@H](Cc2ccccc2)C(=O)NCC(=O)N[C@@H]([C@@H](C)O)C(=O)N1)[C@@H](C)O)C(C)C)C(=O)N[C@@H](Cc1ccc(O)cc1)C(=O)N[C@@H](CCC(N)=O)C(=O)N[C@@H](Cc1ccccc1)C(=O)N[C@H](C(=O)N[C@@H](CC(=O)O)C(=O)N[C@@H](CCCCN)C(=O)N[C@@H](CC(=O)O)C(=O)N[C@@H](CCCCN)C(=O)N[C@@H](CC(=O)O)C(=O)N[C@@H](CC(N)=O)C(=O)N[C@H](C(=O)N[C@@H](C)C(=O)N1CCC[C@H]1C(=O)N[C@@H](CCCNC(=N)N)C(=O)N[C@@H](CO)C(=O)N[C@@H](CCCCN)C(=O)N[C@H](C(=O)N[C@@H](CO)C(=O)N1CCC[C@H]1C(=O)N[C@@H](CCC(N)=O)C(=O)NCC(=O)N[C@@H](Cc1ccc(O)cc1)C(N)=O)[C@@H](C)CC)C(C)C)[C@@H](C)O`, the AUC(0-24h) was 0.466 ± 0.122 ng·h/mL (human, male; intravenous infusion, 15 ng/kg/min daily, 7 days, day 7).
The AUC(0-24h) of `C#C[C@]1(CO)O[C@@H](n2cnc3c(N)nc(F)nc32)C[C@@H]1O` is reported as 0.27 µM·h (human; oral, 2.25 mg once daily, day 19 of, geometric mean, together with: doravirine 100 mg once daily).

A few entries again:
For `Cc1ncc(CO)c(C(=O)O)c1O`, the AUC(0-24h) was 55.1 ± 14.9 ng·h/mL (human, Japanese males; dose not given, endogenous baseline level).
`FC(F)(F)c1ccc(CNc2ccc(Cc3c[nH]c4ncc(Cl)cc34)cn2)cn1` gave an AUC(0-24h) of 27700 ng·h/mL ([14C]-labelled mass balance; human male; oral, 400 mg).
